Results gathered from unrelated publications.
Each numbered part is a random draw from the data of one study; scales do not carry over between parts.
UniProt P42336, sequence (whole entry, unmodified, looked up): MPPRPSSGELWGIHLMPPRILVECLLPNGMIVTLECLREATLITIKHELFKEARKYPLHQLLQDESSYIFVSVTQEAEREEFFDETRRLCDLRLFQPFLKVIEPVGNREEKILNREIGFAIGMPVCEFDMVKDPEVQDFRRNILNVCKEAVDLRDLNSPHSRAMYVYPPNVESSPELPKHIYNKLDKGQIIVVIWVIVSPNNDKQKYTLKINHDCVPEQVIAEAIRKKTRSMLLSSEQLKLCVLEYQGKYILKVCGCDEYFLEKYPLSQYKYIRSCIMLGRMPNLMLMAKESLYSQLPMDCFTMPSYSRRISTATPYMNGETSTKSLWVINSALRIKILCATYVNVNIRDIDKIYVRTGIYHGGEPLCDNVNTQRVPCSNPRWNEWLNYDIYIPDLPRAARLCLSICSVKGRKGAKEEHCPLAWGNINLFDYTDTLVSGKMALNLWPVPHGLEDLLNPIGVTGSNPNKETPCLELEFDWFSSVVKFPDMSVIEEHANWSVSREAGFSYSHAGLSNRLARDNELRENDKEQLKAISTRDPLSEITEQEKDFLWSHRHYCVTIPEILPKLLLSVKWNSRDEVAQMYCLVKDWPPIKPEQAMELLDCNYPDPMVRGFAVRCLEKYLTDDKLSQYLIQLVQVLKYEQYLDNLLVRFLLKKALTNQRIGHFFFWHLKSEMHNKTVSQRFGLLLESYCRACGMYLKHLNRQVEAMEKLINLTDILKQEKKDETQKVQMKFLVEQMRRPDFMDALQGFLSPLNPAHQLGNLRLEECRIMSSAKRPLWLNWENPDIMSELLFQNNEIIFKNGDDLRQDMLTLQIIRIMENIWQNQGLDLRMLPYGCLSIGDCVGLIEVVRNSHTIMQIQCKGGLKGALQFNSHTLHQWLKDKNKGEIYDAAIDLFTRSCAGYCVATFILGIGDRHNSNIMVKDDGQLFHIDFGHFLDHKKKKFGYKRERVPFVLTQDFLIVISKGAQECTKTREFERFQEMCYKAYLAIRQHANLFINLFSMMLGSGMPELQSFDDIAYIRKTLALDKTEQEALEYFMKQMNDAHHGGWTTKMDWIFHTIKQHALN
UniProt P36897, sequence (whole entry, looked up): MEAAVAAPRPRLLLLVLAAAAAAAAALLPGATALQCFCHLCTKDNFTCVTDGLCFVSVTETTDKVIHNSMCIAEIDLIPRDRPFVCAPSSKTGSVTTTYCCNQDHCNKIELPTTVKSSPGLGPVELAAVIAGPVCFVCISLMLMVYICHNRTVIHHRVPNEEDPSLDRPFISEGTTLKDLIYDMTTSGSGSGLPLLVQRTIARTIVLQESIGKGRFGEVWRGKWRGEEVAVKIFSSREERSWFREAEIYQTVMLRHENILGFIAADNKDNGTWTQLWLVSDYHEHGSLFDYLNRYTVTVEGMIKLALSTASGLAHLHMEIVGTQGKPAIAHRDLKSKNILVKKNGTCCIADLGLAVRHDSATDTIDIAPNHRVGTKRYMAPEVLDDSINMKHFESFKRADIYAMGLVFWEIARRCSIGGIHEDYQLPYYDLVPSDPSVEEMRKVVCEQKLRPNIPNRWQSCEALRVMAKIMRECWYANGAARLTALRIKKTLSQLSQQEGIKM
UniProt P45985, sequence (whole entry, looked up): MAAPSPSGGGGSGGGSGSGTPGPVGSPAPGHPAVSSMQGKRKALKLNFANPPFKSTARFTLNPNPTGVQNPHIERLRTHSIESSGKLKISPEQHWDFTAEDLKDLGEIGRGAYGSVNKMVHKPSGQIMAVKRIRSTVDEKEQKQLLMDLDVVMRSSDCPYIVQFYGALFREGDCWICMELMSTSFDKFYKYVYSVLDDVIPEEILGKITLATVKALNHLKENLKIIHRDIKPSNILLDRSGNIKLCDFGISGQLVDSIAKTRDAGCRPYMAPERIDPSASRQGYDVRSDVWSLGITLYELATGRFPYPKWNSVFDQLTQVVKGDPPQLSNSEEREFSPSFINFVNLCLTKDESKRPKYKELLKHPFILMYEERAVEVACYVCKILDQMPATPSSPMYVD
UniProt Q00532, sequence (whole entry, looked up): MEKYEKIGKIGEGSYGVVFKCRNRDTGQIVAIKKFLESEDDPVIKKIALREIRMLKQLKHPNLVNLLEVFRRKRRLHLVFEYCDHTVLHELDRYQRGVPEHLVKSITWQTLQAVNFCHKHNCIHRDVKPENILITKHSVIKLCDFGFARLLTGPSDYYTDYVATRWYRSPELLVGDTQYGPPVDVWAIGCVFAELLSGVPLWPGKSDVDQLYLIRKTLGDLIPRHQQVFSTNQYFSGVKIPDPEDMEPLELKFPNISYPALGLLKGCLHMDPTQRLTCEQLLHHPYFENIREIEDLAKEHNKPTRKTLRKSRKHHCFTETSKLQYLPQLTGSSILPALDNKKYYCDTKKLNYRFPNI
UniProt P51956, sequence (whole entry, looked up): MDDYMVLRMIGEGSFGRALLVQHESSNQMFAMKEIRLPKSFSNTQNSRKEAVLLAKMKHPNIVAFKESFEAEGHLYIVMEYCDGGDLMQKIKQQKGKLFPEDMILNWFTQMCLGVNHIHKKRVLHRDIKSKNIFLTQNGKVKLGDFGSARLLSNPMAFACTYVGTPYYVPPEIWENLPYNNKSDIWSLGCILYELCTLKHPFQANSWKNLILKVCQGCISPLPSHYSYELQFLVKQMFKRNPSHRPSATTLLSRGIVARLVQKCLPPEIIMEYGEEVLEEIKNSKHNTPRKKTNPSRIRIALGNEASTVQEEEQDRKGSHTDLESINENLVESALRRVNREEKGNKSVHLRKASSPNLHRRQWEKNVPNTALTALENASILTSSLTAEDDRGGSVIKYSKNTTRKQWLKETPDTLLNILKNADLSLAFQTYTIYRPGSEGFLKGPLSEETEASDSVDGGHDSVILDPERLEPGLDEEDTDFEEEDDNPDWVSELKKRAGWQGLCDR
UniProt O15111, sequence (whole entry, looked up): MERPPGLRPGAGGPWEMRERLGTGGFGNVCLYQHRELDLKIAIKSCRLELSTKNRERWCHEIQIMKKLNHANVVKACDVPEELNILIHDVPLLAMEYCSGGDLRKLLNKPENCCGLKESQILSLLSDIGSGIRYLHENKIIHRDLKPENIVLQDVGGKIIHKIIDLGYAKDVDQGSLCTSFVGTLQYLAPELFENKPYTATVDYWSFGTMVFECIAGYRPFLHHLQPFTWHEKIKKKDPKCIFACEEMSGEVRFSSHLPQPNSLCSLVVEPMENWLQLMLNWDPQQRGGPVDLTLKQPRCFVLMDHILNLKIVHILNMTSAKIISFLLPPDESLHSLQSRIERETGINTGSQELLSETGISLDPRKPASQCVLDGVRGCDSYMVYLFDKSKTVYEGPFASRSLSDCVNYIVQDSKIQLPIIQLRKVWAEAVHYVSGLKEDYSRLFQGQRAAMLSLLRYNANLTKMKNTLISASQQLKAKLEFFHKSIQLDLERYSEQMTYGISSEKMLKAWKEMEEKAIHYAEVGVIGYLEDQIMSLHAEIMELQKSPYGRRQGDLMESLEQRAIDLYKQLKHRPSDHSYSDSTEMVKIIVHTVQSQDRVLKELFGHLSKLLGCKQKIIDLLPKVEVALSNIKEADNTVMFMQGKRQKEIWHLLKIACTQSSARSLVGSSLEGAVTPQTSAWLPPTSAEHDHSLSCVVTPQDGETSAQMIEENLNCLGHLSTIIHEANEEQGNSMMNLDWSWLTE
UniProt P10721, sequence (whole entry, unmodified, looked up): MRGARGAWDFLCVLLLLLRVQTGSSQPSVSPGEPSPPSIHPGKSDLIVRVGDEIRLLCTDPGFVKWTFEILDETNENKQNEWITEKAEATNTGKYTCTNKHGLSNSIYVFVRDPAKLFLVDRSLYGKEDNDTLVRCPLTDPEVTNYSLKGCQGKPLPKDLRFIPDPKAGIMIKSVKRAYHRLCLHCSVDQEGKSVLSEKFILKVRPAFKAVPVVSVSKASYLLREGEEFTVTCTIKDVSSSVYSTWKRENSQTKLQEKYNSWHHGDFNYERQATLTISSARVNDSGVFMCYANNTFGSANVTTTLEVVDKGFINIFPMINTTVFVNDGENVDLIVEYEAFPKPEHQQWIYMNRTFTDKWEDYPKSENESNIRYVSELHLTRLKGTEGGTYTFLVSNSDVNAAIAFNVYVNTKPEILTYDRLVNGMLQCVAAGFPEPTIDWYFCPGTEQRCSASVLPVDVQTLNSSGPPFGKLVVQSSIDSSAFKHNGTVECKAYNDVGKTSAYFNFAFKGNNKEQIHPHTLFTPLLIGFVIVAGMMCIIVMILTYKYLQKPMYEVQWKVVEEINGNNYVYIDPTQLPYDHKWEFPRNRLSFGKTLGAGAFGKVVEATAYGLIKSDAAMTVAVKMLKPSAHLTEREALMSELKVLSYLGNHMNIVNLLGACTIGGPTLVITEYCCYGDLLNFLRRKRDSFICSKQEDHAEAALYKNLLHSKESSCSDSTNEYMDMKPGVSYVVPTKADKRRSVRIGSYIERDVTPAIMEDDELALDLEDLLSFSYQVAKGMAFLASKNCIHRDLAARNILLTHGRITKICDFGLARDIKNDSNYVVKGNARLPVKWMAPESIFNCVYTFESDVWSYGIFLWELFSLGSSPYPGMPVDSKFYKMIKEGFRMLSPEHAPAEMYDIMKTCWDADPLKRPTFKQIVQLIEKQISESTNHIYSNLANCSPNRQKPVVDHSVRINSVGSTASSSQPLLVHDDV
UniProt P31751, sequence (whole entry, looked up): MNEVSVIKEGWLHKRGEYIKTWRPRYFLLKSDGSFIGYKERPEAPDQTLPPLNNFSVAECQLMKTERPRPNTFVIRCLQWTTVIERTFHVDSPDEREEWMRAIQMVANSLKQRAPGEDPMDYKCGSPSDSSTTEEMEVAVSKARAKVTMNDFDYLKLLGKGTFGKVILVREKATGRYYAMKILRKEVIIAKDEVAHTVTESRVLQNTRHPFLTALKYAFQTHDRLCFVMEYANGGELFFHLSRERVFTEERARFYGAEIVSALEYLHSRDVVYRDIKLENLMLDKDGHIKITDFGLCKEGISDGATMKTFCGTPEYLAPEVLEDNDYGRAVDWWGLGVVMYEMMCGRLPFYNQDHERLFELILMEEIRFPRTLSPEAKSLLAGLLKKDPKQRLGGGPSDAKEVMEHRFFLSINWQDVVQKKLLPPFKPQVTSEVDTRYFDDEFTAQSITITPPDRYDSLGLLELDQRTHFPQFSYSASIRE

Sample 1
SMILES: Cc1nc(Cc2cccc(C(F)(F)F)c2)sc1-c1ccc(C(N)=O)nc1
Method: competition with immobilised ligand
Concentration: 1 µM
Quantity: remaining binding
MKNK2 (Homo sapiens, UniProt Q9HBH9); cell-free assay: 100%
Ribosomal protein S6 kinase alpha-4, N-terminal kinase domain (RPS6KA4, Homo sapiens, UniProt O75676); cell-free assay: 82%
Non-receptor tyrosine-protein kinase TYK2, JH1 (TYK2, Homo sapiens, UniProt P29597); cell-free assay: 100%
LIM domain kinase 2 (LIMK2, Homo sapiens, UniProt P53671); cell-free assay: 98%
AKT2 (Homo sapiens, UniProt P31751); cell-free assay: 81%
STK10 (Homo sapiens, UniProt O94804); cell-free assay: 100%
CSNK2A2 (Homo sapiens, UniProt P19784); cell-free assay: 96%
MAP3K19 (Homo sapiens, UniProt Q56UN5); cell-free assay: 100%
EGFR (Homo sapiens, UniProt P00533, L858R); cell-free assay: 100%
NEK3 (Homo sapiens, UniProt P51956); cell-free assay: 100%
EGFR (Homo sapiens, UniProt P00533, T790M); cell-free assay: 98%
MAP3K3 (Homo sapiens, UniProt Q99759); cell-free assay: 97%
BMPR2 (Homo sapiens, UniProt Q13873); cell-free assay: 100%
EGFR (Homo sapiens, UniProt P00533, del747-750/T751S); cell-free assay: 100%
CHUK (Homo sapiens, UniProt O15111); cell-free assay: 100%
Receptor-type tyrosine-protein kinase FLT3, autoinhibited (FLT3, Homo sapiens, UniProt P36888); cell-free assay: 93%
PLK1 (Homo sapiens, UniProt P53350); cell-free assay: 100%
PIK3CA (Homo sapiens, UniProt P42336, E542K); cell-free assay: 66%
CDKL1 (Homo sapiens, UniProt Q00532); binding: 85%
CDK17 (Homo sapiens, UniProt Q00537); cell-free assay: 83%
STK36 (Homo sapiens, UniProt Q9NRP7); cell-free assay: 100%
HCK (Homo sapiens, UniProt P08631); cell-free assay: 100%
PIK3CA (Homo sapiens, UniProt P42336, Q546K); cell-free assay: 86%
FLT3 (Homo sapiens, UniProt P36888, D835V/ITD); cell-free assay: 100%
STK11 (Homo sapiens, UniProt Q15831); cell-free assay: 100%

Sample 2
Organism: Sarcocystis neurona
Read-out: parasite growth
Concentration: 10 µM
Time: 96 h
Relative to: untreated
Quantity: log2 fold change
C[C@]12C=CC(=O)C=C1CC[C@@H]1[C@@H]2[C@@H](O)C[C@@]2(C)[C@H]1CC[C@]2(O)C(=O)CO: 0.3
O=C1[C@H](CC[C@H](O)c2ccc(F)cc2)[C@@H](c2ccc(O)cc2)N1c1ccc(F)cc1: -0.42
CSc1nc2cc(Cl)c(Oc3cccc(Cl)c3Cl)cc2[nH]1: -0.19
CCCCC1=NC2(CCCC2)C(=O)N1Cc1ccc(-c2ccccc2-c2nnn[nH]2)cc1: -0.06
CSc1ccc2c(c1)N(CCC1CCCCN1C)c1ccccc1S2 (stereo not shown): -0.69
Cc1c(OCC(F)(F)F)ccnc1C[S+]([O-])c1nc2ccccc2[nH]1 (stereo not shown): 1.05
CCCN1CCCC[C@H]1C(=O)Nc1c(C)cccc1C: 0.24
N[C@@H](C(=O)N[C@@H]1C(=O)N2C(C(=O)O)=C(Cl)CS[C@H]12)c1ccccc1: 0.23
CC[C@@]1(O)C(=O)OCc2c1cc1n(c2=O)Cc2cc3c(CN(C)C)c(O)ccc3nc2-1: 0.32
O=C(O[C@H]1[C@H](Oc2ccccc2COC(=O)C2(O)C=CCCC2=O)O[C@H](CO)[C@@H](O)[C@@H]1O)c1ccccc1 (stereo partly shown): 0.34
COC1=CC(=O)C[C@@H](C)[C@]12Oc1c(Cl)c(OC)cc(OC)c1C2=O: 0.54
COC(=O)Nc1nc2cc(C(=O)c3ccc(F)cc3)ccc2[nH]1: -0.33

Sample 3
Structure (SMILES): CN1CCN(C(=O)c2ccc(NC(=O)Nc3ccc(N(C)c4ccnc(Nc5ccc(CS(C)(=O)=O)cc5)n4)cc3)cc2)CC1
Read-out: binding
Concentration: 1 µM
Quantity: remaining binding
CDK13 (Homo sapiens, UniProt Q14004): 13%
MAP2K4 (Homo sapiens, UniProt P45985): 6%
EPHB3 (Homo sapiens, UniProt P54753); competition with immobilised ligand: 100%
KIT (Homo sapiens, UniProt P10721, V559D/V654A): 9.1%
TNK2 (Homo sapiens, UniProt Q07912); competition with immobilised ligand: 6.5%
TGFBR1 (Homo sapiens, UniProt P36897); competition with immobilised ligand: 88%
CDPK1 (Plasmodium falciparum, UniProt P62344): 71%
PIK3CA (Homo sapiens, UniProt P42336, E545A): 100%
RPS6KB1 (Homo sapiens, UniProt P23443): 37%
MAP4K2 (Homo sapiens, UniProt Q12851); competition with immobilised ligand: 43%
SBK1 (Homo sapiens, UniProt Q52WX2); competition with immobilised ligand: 65%
LYN (Homo sapiens, UniProt P07948); competition with immobilised ligand: 71%
MAP2K1 (Homo sapiens, UniProt Q02750); competition with immobilised ligand: 33%
NEK11 (Homo sapiens, UniProt Q8NG66); competition with immobilised ligand: 100%

Sample 4
Medium: hydrocarbon/water
Quantity: logD
CC[C@H]1C(=O)N[C@@H](CC(C)C)C(=O)N(C)[C@@H](C)C(=O)N[C@@H](CC(C)C)C(=O)N(C)Cc2cn(nn2)CC(=O)N[C@@H](CC(C)C)C(=O)N(C)[C@@H](C)C(=O)N[C@@H](CC(C)C)C(=O)N2CCC[C@@H]2C(=O)N1C: 0.0181
CCC[C@H]1C(=O)N[C@@H](CC2CCCCC2)C(=O)N(C)[C@@H](C)C(=O)N[C@@H](CC(C)C)C(=O)N(C)Cc2cn(nn2)CC(=O)N[C@@H](CC(C)C)C(=O)N(C)[C@@H](C)C(=O)N[C@@H](CC2CCCCC2)C(=O)N2CCC[C@@H]2C(=O)N1C: 2.36
CC[C@@H]1C(=O)N(C)[C@@H](CC(C)C)C(=O)N[C@@H](CC(C)C)C(=O)N2CCC[C@@H]2C(=O)N(C)[C@@H](CC2CCCCC2)C(=O)N[C@@H](CC(C)C)C(=O)N1C: 3.21
CCC[C@@H]1NC(=O)CSC[C@@H](C(=O)OCC)N(C)C(=O)[C@H](CC(C)C)NC(=O)[C@@H](C)N(C)C(=O)[C@@H](CC(C)C)NC(=O)[C@H](C)N(C)C(=O)[C@H]2CCCN2C(=O)[C@@H](CC(C)C)NC(=O)CN(CCC)C1=O: 1.12
CC(C)C[C@@H]1NC(=O)[C@H](Cc2ccccc2)NC(=O)[C@H]2CCCN2C(=O)[C@H](CC(C)C)NC(=O)[C@H](CC2CCCCC2)NC(=O)[C@@H](CC(C)C)NC1=O: 2.35
CCCCCN1CC(=O)NC(CC(C)C)C(=O)N(C)C(C)C(=O)NC(C)C(=O)N2CCCC2C(=O)N(Cc2ccc3c(c2)OCO3)CC(=O)NC(CC(C)C)C(=O)N(C)C(C)C(=O)NC(CC(C)C)C(=O)N2CCCC2C1=O (stereo not shown): 2.75
CCOC(=O)[C@@H]1CSCC(=O)N[C@@H](CC)C(=O)N(C)[C@@H](C)C(=O)N[C@H](CC(C)C)C(=O)N2CCC[C@@H]2C(=O)N(CC)CC(=O)N[C@H](CC(C)C)C(=O)N(C)[C@H](C)C(=O)N[C@@H](CC(C)C)C(=O)N1C: 0.569
CC(C)CC1NC(=O)CN(CC2CCCCC2)C(=O)C2CCCN2C(=O)C(CC(C)C)NC(=O)C(C)N(C)C(=O)C(CC(C)C)NC(=O)CN(CCCOC(C)C)C(=O)C2CCCN2C(=O)C(C)NC(=O)C(C)N(C)C1=O (stereo not shown): 2.92
CCCCCN1CC(=O)N[C@@H](Cc2ccccc2)C(=O)N2CCC[C@@H]2C(=O)N(C)[C@@H](CC(C)C)C(=O)N[C@@H](C)C(=O)N(CCCOC(C)C)CC(=O)N[C@@H](CC(C)C)C(=O)N2CCC[C@@H]2C(=O)N(C)[C@@H](CC(C)C)C(=O)N[C@@H](C)C1=O: 2.96
CC(C)C[C@@H]1NC(=O)[C@H](C)N(C)C(=O)[C@H](CC2CCCCC2)NC(=O)[C@H](C)N(C)C(=O)[C@H]2CCCN2C(=O)[C@H](CC(C)C)NC(=O)CN(CC(C)C)C(=O)[C@H](CC(C)C)NC(=O)Cn2cc(nn2)CN(C)C1=O: 1.4
